Measured values collected from several papers.
Compare with care: the assays were run in different laboratories.
Target: Activin receptor type-1-like (ACVRL1, Homo sapiens, UniProt P37023)

With `COc1c(Cl)cccc1Nc1c(-c2ccncc2C#C[C@@]2(C)CCCN2C(=O)/C=C/CN(C)C)[nH]c2c1C(=O)NCC2` the remaining binding was 96% (binding, competition with immobilised ligand; 3 µM).
With `Cc1nc2c(F)cc(-c3nc(Nc4ccc(CNC(=O)CCCCCCC(=O)NO)cc4)ncc3F)cc2n1C(C)C` the inhibition was 61% (enzyme activity, inhibitor; 1 µM).
For `NC(=O)C[C@H]1CCc2sc3ncnc(O[C@H]4CC[C@H](N5CCOCC5)CC4)c3c21`, the inhibition was -2% (enzyme activity, inhibitor; 10 µM).
Under “activity vs control”, `CNC(=O)C[C@H](Cc1ccc(C#N)cc1)NC(=O)c1cc(-c2ccc(CN[C@H](C)c3ccc(C)cc3)o2)ccc1Cl` is recorded as 122% (enzyme activity, inhibitor; 1 µM).
For `C=CC(=O)N1CCc2ccc(-n3c(=O)ccc4cnc5ccc(-c6cnn(C)c6)cc5c43)cc21`, the remaining binding was 100% (KINOMEscan; 1 µM; baseline: DMSO control).
`CN1CC[C@@H](COc2cnc(C#N)cc2-c2ccn3nc(NC(=O)C4CC4)cc3c2)C1` has an inhibition of -13% (enzyme activity, inhibitor; 1 µM).
`Cc1ccc(-c2c(/C=C(\C#N)C(=O)NC(C)C)n(CCCO)c3ncnc(N)c23)cc1` has a remaining activity of 70% (enzyme activity, inhibitor; 1 µM).
With `CCN1CCN(Cc2ccc(C(=O)Nc3ccc(C)c(NCc4cnc5[nH]ccc5c4OC)c3)cc2C(F)(F)F)CC1` the remaining binding was 100% (binding, competition with immobilised ligand; 1 µM).
`C=CC(=O)N1Cc2nc(-c3cc(-c4cc(Cl)cnc4Cl)c(F)cc3F)n(-c3ccncn3)c2C1` gave an inhibition of -10.1% (cell-free assay; 1 µM).
`COc1cc(Nc2nccc(-c3cnn4nc(OC)ccc34)n2)cc(C(F)(F)F)c1` has a remaining binding of 98% (binding, competition with immobilised ligand; 1 µM).
With `Nc1ncc2c(n1)-c1c([nH]c3ccc(C4=CCOCC4)cc13)CCC2` the remaining binding was 100% (binding, competition with immobilised ligand; 1 µM).

For quick reference, copied from above:
With `CCN1CCN(Cc2ccc(C(=O)Nc3ccc(C)c(NCc4cnc5[nH]ccc5c4OC)c3)cc2C(F)(F)F)CC1` the remaining binding was 100% (binding, competition with immobilised ligand; 1 µM).
